Results collected from several papers.
Protocols differ between the studies behind these lines. “And” joins repeats or separate records; there may be more than shown.
Target: PAS domain-containing serine/threonine-protein kinase (PASK, Homo sapiens, UniProt Q96RG2)

test | system | conditions | scale | quantity | result | SMILES
enzyme activity |  | 1 µM | baseline: DMSO control | remaining activity | 90.1% | Nc1ncc(-c2cc(-c3cnn(CC(F)(F)F)c3)ncc2F)nc1C(=O)NC1CNCC(F)C1 (centres unmarked)
IA-probe cysteine labelling, covalent modifier, competitive isoTOP-ABPP | Ramos proteome | 100 µM, in vitro | baseline: DMSO over compound, higher = stronger blockade | isoTOP-ABPP ratio | 15 | CCCCCC=CC=C1C(=O)C=CC1CC=CCCCC(=O)O (centres unmarked)
cell-free assay, inhibitor |  | 1 µM |  | inhibition | 2.7% | C=CC(=O)N1Cc2nc(-c3cc(-c4cc(Cl)cnc4Cl)c(F)cc3F)n(-c3ccncn3)c2C1
enzyme activity, inhibitor |  | 10 µM |  | activity vs control | 119% | O=C(Cc1ccc(OCc2ccccc2)cc1)NC1(C(=O)O)CCN(C(=O)c2ccc(-c3cccc(Cl)c3)cc2)CC1
kinase activity |  | 0.1 µM, with: ATP at Km |  | inhibition | -3.1% | CCn1cc(C(=O)O)c(=O)c2c(N)c(F)c(NC3CCCCC3)cc21
enzyme activity, inhibitor |  | 1 µM |  | activity vs control | 101% | CNC(=O)C[C@H](Cc1ccc(C#N)cc1)NC(=O)c1cc(-c2ccc(CN[C@H](C)c3ccc(C)cc3)o2)ccc1Cl
enzyme activity, inhibitor |  | 10 µM |  | inhibition | 1% | NC(=O)[C@@H](O)C[C@H]1CCc2sc3ncnc(O[C@H]4CC[C@H](N5CCOCC5)CC4)c3c21
kinase activity, inhibitor, ProQinase kinase profiling |  | 25 µM | baseline: control | remaining activity | 98% and 99% | COCC12C(=O)NC3C4(C(OC)CC1O)C1CC5(O)C(OC)C(O)C(OC(C)=O)(C1C5OC(=O)c1ccccc1)C3(O)C(OC)C24 (centres unmarked)
kinase activity |  | 0.1 µM |  | inhibition | 1% and 0% | C=CC(=O)Nc1cccc(-c2cnc3[nH]cc(C(=O)NC(C)(C)C)c3n2)c1
kinase activity, KinaseProfiler |  | 0.03 µM, species human | baseline: control | remaining activity | 55% | COc1ccc(NC(=O)Nc2ccc3c(c2)C(=O)N(C(C)CO)CC(C)C(CN(C)Cc2ccc4c(c2)OCO4)O3)cc1 (centres unmarked)
enzyme activity, inhibitor |  | 1 µM |  | inhibition | 70% | Cc1nc2c(F)cc(-c3nc(Nc4ccc(CNC(=O)CCCCCCC(=O)NO)cc4)ncc3F)cc2n1C(C)C
enzyme activity, inhibitor |  | 0.1 µM |  | inhibition | 1% | CN1CCN(Cc2ccc(-c3ccc(CO[C@H]4CCC[C@@H]4NC(=O)c4cc(-c5cnn(C)c5)cnc4N)cc3)cc2)CC1
enzyme activity, inhibitor |  | 10 µM |  | inhibition | 0% | NC(=O)C[C@H]1CCc2sc3ncnc(O[C@H]4CC[C@H](N5CCOCC5)CC4)c3c21
enzyme activity, inhibitor |  | 10 µM |  | inhibition | -11% | Cc1cccc(O[C@H]2CCC[C@@H](C(C)CNCc3ccncc3)C2)c1 (relative stereo)
kinase activity, inhibitor |  | 1 µM | baseline: untreated control | remaining activity | 127% | COc1c(OCCCN2CCOCC2)ccc2c1N=C(NC(=O)c1cnc(N)nc1)N1CCN=C21
enzyme activity |  | 100 nM, human enzyme, with: 10 µM ATP | baseline: untreated | remaining activity | 102% | O=C=[N][Ru-4]123([n]4c5ccc(O)cc5c5c6c(c7cc(F)c[n+]1c7c54)C(=O)NC6=O)[S+]1CC[S+]2CC[S+]3CC1 (centres unmarked)
enzyme activity, inhibitor |  | 1 µM |  | inhibition | -41% | CN1CC[C@@H](COc2cnc(C#N)cc2-c2ccn3nc(NC(=O)C4CC4)cc3c2)C1

Excerpt of the above:
test | system | conditions | scale | quantity | result | SMILES
kinase activity, inhibitor, ProQinase kinase profiling |  | 25 µM | baseline: control | remaining activity | 98% and 99% | COCC12C(=O)NC3C4(C(OC)CC1O)C1CC5(O)C(OC)C(O)C(OC(C)=O)(C1C5OC(=O)c1ccccc1)C3(O)C(OC)C24 (centres unmarked)
